Results of several laboratories.
Parts stem from different laboratories: compare values within a part only. Several values in a cell are separate wells, animals, samples, runs or records.
UniProt Q04759, sequence (whole entry, looked up): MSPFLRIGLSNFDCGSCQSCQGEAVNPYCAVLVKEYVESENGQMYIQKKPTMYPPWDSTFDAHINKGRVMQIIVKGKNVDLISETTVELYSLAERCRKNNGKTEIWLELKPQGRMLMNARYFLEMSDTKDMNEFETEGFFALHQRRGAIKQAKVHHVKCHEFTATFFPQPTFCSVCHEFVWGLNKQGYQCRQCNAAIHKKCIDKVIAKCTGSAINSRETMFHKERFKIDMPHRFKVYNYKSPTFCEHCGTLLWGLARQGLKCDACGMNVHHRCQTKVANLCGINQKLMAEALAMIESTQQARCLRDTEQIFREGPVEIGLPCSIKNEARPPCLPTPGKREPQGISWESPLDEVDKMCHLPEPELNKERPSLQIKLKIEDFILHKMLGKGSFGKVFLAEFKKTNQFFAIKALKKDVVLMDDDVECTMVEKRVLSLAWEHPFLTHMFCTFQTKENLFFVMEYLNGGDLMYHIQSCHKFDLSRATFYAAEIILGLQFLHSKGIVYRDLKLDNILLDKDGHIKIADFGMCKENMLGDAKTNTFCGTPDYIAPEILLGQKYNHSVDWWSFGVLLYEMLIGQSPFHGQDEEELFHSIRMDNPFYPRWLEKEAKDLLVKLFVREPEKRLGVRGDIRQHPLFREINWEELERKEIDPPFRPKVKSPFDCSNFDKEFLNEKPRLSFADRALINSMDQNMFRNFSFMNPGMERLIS
UniProt P28482, sequence (whole entry, looked up): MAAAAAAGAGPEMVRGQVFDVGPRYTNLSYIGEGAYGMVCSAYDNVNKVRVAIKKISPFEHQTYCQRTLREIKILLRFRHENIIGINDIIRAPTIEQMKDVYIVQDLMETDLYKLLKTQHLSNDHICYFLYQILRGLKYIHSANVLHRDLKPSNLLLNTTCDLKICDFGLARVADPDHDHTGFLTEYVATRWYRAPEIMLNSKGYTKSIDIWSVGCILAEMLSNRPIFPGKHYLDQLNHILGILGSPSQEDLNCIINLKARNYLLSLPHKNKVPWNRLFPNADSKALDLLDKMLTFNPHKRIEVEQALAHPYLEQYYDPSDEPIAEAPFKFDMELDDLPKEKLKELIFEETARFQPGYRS

Series 1 — observed: enzyme activity; action: inhibitor; tested at: 77 µM; reference: untreated
Target: DNA polymerase theta, ATPase domain (POLQ, Homo sapiens, UniProt O75417)
UniProt O75417, sequence (whole entry, unmodified, looked up): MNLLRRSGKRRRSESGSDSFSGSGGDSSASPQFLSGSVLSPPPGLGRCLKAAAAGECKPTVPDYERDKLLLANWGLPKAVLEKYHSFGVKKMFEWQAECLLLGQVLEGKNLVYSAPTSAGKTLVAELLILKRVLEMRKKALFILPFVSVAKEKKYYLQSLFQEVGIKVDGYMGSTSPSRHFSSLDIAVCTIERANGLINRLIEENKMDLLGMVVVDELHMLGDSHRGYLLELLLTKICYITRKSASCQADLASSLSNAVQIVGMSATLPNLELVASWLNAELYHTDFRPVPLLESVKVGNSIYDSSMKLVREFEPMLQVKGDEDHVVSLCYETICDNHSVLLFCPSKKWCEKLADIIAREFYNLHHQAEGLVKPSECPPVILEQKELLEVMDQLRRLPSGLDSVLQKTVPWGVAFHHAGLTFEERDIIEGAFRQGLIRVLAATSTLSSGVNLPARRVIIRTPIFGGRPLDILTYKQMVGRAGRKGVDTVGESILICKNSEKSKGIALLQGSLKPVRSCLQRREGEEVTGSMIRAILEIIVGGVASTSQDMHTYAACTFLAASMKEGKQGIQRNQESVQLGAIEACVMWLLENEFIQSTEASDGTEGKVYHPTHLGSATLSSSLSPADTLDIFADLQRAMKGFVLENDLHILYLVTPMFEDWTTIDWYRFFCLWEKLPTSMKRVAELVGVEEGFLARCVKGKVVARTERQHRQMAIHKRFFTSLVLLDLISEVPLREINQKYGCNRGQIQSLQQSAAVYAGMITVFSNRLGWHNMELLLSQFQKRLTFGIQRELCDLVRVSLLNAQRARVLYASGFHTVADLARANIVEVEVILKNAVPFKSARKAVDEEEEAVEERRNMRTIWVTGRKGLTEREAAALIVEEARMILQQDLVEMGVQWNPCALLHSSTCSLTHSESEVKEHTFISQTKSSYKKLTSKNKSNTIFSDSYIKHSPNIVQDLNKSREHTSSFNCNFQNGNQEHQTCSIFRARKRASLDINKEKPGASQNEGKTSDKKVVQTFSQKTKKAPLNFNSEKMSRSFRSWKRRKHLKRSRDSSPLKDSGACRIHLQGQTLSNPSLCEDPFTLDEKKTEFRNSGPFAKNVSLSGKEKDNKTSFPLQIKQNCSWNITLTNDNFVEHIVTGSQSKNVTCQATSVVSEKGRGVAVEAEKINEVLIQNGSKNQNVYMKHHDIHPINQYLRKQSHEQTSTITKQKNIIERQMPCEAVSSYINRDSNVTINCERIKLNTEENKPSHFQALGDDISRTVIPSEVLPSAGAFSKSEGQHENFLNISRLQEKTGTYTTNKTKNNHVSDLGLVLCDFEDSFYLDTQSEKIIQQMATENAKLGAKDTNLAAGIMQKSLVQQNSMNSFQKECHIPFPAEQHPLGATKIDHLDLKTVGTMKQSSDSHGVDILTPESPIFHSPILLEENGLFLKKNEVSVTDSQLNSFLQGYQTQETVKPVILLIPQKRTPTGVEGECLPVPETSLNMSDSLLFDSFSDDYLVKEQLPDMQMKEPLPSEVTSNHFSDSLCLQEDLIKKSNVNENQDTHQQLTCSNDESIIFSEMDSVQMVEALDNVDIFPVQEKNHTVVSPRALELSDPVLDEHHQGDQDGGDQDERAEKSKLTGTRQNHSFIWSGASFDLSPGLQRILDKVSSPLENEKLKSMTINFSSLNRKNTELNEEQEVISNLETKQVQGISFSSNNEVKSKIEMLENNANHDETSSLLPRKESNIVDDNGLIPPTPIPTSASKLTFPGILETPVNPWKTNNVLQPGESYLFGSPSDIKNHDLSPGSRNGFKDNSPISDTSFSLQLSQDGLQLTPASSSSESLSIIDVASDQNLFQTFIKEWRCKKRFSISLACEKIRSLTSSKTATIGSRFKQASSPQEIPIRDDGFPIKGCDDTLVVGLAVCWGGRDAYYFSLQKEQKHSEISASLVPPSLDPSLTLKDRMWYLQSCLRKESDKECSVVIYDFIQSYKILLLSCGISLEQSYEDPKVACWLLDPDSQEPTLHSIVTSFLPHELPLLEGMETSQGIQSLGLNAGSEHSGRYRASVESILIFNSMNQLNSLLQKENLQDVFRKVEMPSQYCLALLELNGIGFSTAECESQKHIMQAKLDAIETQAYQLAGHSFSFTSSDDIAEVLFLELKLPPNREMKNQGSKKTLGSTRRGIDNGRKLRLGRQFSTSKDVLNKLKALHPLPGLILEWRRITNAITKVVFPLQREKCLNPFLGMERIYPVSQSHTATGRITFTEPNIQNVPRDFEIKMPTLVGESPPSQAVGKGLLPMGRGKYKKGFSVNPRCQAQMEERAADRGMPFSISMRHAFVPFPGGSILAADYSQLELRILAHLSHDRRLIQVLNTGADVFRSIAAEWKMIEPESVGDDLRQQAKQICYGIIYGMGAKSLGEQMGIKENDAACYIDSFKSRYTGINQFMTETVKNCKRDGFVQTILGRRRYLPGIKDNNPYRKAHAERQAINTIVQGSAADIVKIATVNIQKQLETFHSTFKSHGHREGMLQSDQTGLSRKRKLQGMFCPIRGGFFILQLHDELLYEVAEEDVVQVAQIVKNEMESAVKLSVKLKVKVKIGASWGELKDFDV
`O=c1ccc2ccccc2o1` gave a remaining activity of 96%.
`COc1ccc2nc3n[nH]c(C)c3c(NCCOCCO)c2c1` gave a remaining activity of 98.3%.
With `O=c1ccn([C@@H]2O[C@H](CO)[C@@H](O)[C@H]2O)c(=O)[nH]1` the remaining activity was 102%.
`COc1cc2ccc(=O)oc2cc1O` gave a remaining activity of 74%.
The remaining activity of `C[C@]12CCC(=O)C=C1CC[C@@H]1[C@@H]2[C@@H](O)C[C@@]2(C)[C@H]1CC[C@]2(O)C(=O)CO` is reported as 85.2% and 100%.
With `COC(=O)Nc1nc2cc(C(=O)c3ccccc3)ccc2[nH]1` the remaining activity was 102%.
For `NC(Cn1ccc(=O)c(O)c1)C(=O)O` (stereo not drawn), the remaining activity was 101%.
For `CN(C)c1ccc(C(=C2C=CC(=[N+](C)C)C=C2)c2ccc(N(C)C)cc2)cc1`, the remaining activity was 85.2%.
With `C[C@H](N)[C@H](O)c1cccc(O)c1` the remaining activity was 102%.
For `CC(C)Cn1c(=O)n(C)c(=O)c2[nH]cnc21`, the remaining activity was 93%.
`CO[C@H]1C[C@H](O[C@H]2[C@H](C)[C@@H](O[C@@H]3O[C@H](C)C[C@H](N(C)C)[C@H]3OC(C)=O)[C@@H](C)C[C@@]3(CO3)C(=O)[C@H](C)[C@@H](OC(C)=O)[C@@H](C)[C@@H](C)OC(=O)[C@@H]2C)O[C@@H](C)[C@@H]1OC(C)=O` has a remaining activity of 98.5%.
The remaining activity of `O=c1c2ccccc2nc2n1CCc1c-2[nH]c2ccccc12` is reported as 99.5% and 96.6%.
`C=CC(N)CCC(=O)O` (stereo not drawn) has a remaining activity of 95.7%.
The remaining activity of `CCOC(=O)[C@@](C)(N)Cc1ccc(O)c(O)c1` is reported as 91.1%.
For `C[C@H]1[C@H](C)CC[C@]2(C(=O)O[C@@H]3O[C@H](CO[C@@H]4O[C@H](CO)[C@@H](O[C@@H]5O[C@H](C)[C@H](O)[C@@H](O)[C@H]5O)[C@H](O)[C@H]4O)[C@@H](O)[C@H](O)[C@H]3O)CC[C@]3(C)C(=CC[C@@H]4[C@@]5(C)C[C@@H](O)[C@H](O)[C@@](C)(CO)[C@@H]5CC[C@]43C)[C@H]12`, the remaining activity was 106%.
For `Cc1ccc(C(=O)c2cc(O)c(O)c([N+](=O)[O-])c2)cc1`, the remaining activity was 64%.
`O=C1NC(=O)C(c2ccccc2)(c2ccccc2)N1` gave a remaining activity of 103%.
For `O=C1Nc2ccc(Br)cc2/C1=C/c1cc2c([nH]1)CCCC2`, the remaining activity was 93.6%.

Series 2 — observed: enzyme activity; action: inhibitor; tested at: 0.5 µM; reference: control
Target: MAP kinase-activated protein kinase 5 (MAPKAPK5, Homo sapiens, UniProt Q8IW41)
UniProt Q8IW41, sequence (whole entry, looked up): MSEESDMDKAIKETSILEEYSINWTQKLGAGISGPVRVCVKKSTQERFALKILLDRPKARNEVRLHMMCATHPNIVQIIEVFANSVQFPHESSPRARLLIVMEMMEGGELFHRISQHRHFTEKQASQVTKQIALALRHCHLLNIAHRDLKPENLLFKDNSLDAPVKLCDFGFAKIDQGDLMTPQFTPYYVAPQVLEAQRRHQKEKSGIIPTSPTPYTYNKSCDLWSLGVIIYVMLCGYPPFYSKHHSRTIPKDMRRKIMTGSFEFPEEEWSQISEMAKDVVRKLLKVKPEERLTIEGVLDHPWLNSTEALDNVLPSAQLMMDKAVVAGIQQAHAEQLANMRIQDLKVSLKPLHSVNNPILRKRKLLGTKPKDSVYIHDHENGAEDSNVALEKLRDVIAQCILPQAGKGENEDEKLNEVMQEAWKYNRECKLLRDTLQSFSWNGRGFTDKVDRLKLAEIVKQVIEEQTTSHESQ
For `CC(C)n1cnc2c(Nc3cccc(Cl)c3)nc(NCCO)nc21`, the remaining activity was 68.6%.
`O=C(O)/C=C/c1cc(Br)c(Br)c(Br)c1Br` has a remaining activity of 72.6%.
`CCCCc1c(-c2ccc(O)cc2)[nH]c2nccnc12` has a remaining activity of 93.1%.
With `CC(C)(C)c1nc2c3cc[nH]c(=O)c3c3cc(F)ccc3c2[nH]1` the remaining activity was 88.1%.
With `O=c1c(-c2ccc(F)cc2)c(-c2ccncc2)[nH]n1-c1ccc(Cl)cc1` the remaining activity was 99.7%.
The remaining activity of `CNc1cc2c(Nc3cccc(Br)c3)ncnc2cn1` is reported as 99.3%.
The remaining activity of `Nc1nc(Nc2ccc(S(N)(=O)=O)cc2)nn1C(=S)Nc1c(F)cccc1F` is reported as 52.2%.
`FC(F)(F)c1ccc(/C=C/c2nc(COc3ccc(CCCCn4ccnn4)cc3)co2)cc1` gave a remaining activity of 101%.
The remaining activity of `COc1cc2c(N3CCN(C(=O)Nc4ccc(OC(C)C)cc4)CC3)ncnc2cc1OCCCN1CCCCC1` is reported as 91.9%.
With `CCN(CC)CCCCN1c2ccccc2Oc2ccc(Cl)cc21` the remaining activity was 95.9%.
`N#C/C(=C(/N)SC1C=CC=CC1)c1cccc(C(O)c2ccncc2)c1` (stereo not drawn) has a remaining activity of 84.9%.
`c1cc(-c2cnn3cc(-c4ccc(OCCN5CCCCC5)cc4)cnc23)ccn1` gave a remaining activity of 91.3%.
The remaining activity of `O=C1NC(=O)/C(=C/c2ccc3c(c2)OC(F)(F)O3)S1` is reported as 98.2%.
`O=C1c2ccccc2-c2nc3nnnn3nc21` gave a remaining activity of 66.9%.
For `NC(=O)c1ccc(-c2nc(-c3ccc4c(c3)OCCO4)c(-c3ccccn3)[nH]2)cc1`, the remaining activity was 69.6%.
For `O=C(c1ccccc1)c1ccc(N2CCOCC2)cc1O`, the remaining activity was 99.8%.
`COc1cc2c(Nc3ccc(Br)cc3F)ncnc2cc1OCC1CCN(C)CC1` has a remaining activity of 94.7%.
`C[C@@H](N)[C@H]1CC[C@H](C(=O)Nc2ccncc2)CC1` has a remaining activity of 90.8%.
The remaining activity of `NC(=O)c1cccc(-c2cc(Nc3ccc(OC(F)(F)F)cc3)ncn2)c1` is reported as 94.3%.
For `CC(C)N(CCC(=O)c1ccc2ccccc2c1)Cc1ccccc1`, the remaining activity was 96.6%.
For `N#CC(c1ccnc(NCCc2cccnc2)n1)c1nc2ccccc2s1` (stereo not drawn), the remaining activity was 98.3%.
For `O=Nc1c(-c2c(O)[nH]c3ccccc23)[nH]c2ccccc12`, the remaining activity was 101%.
`Clc1ccc(Nc2nnc(Cc3ccncc3)c3ccccc23)cc1` gave a remaining activity of 97.8%.

Series 3 — tested at: 1 µM
SMILES: C=CC(=O)N1CCC([C@@H]2CCNc3c(C(N)=O)c(-c4ccc(Oc5ccccc5)cc4)nn32)CC1
The inhibition was 44% (NLK (Homo sapiens, UniProt Q9UBE8); enzyme activity, inhibitor).
The inhibition was 18% (Tyrosine-protein kinase ABL1, non-phosphorylated (ABL1, Homo sapiens, UniProt P00519, T315I); enzyme activity, inhibitor).
The inhibition was 0% (CSF1R (Homo sapiens, UniProt P07333); cell-free assay).
EGFR (Homo sapiens, UniProt P00533, del747-752/P753S); cell-free assay — inhibition: 64%.
It gave 15% for inhibition (PRKCI (Homo sapiens, UniProt P41743); enzyme activity, inhibitor).
RET (Homo sapiens, UniProt P07949, V804L); enzyme activity, inhibitor — inhibition: 9%.
For SIK2 (Homo sapiens, UniProt Q9H0K1); enzyme activity, inhibitor: inhibition read 0%.
For STK36 (Homo sapiens, UniProt Q9NRP7); enzyme activity, inhibitor: inhibition read 22%.
Ribosomal protein S6 kinase alpha-6, N-terminal kinase domain (RPS6KA6, Homo sapiens, UniProt Q9UK32); inhibitor — inhibition: 24%.
It gave 13% for inhibition (TIE1 (Homo sapiens, UniProt P35590); cell-free assay).
The inhibition was 0% (CDK16 (Homo sapiens, UniProt Q00536); enzyme activity, inhibitor).
It gave 53% for inhibition (Tyrosine-protein kinase ABL1, non-phosphorylated (ABL1, Homo sapiens, UniProt P00519); enzyme activity, inhibitor).
It gave 34% for inhibition (FLT3 (Homo sapiens, UniProt P36888); enzyme activity, inhibitor).
CDK14 (Homo sapiens, UniProt O94921); enzyme activity, inhibitor — inhibition: 6%.
It gave 3% for inhibition (CAMKK1 (Homo sapiens, UniProt Q8N5S9); enzyme activity, inhibitor).
For BMPR1B (Homo sapiens, UniProt O00238); enzyme activity, inhibitor: inhibition read 27%.

Series 4 — tested at: 1 µM
SMILES: Cc1nc(C2CCN(C(=O)c3ccc(OC(F)(F)F)cc3N)CC2)c2ncc(N3CCN(C)CC3)cc2n1
The remaining binding was 89% (Tyrosine-protein kinase ABL1, phosphorylated (ABL1, Homo sapiens, UniProt P00519, H396P); cell-free assay, competition with immobilised ligand).
The remaining binding was 93% (PRKCQ (Homo sapiens, UniProt Q04759); cell-free assay, competition with immobilised ligand).
It gave 85% for remaining binding (DCLK1 (Homo sapiens, UniProt O15075); cell-free assay, competition with immobilised ligand).
Tyrosine-protein kinase ABL1, non-phosphorylated (ABL1, Homo sapiens, UniProt P00519, F317I); binding, competition with immobilised ligand — remaining binding: 100%.
For CAMK1G (Homo sapiens, UniProt Q96NX5); cell-free assay, competition with immobilised ligand: remaining binding read 100%.
NEK2 (Homo sapiens, UniProt P51955); cell-free assay, competition with immobilised ligand — remaining binding: 100%.
PIK3CA (Homo sapiens, UniProt P42336, I800L); cell-free assay, competition with immobilised ligand — remaining binding: 96%.
BRSK2 (Homo sapiens, UniProt Q8IWQ3); cell-free assay, competition with immobilised ligand — remaining binding: 100%.
For STK32B (Homo sapiens, UniProt Q9NY57); cell-free assay, competition with immobilised ligand: remaining binding read 90%.
It gave 100% for remaining binding (CAMK2G (Homo sapiens, UniProt Q13555); cell-free assay, competition with immobilised ligand).
It gave 98% for remaining binding (ALK (Homo sapiens, UniProt Q9UM73, L1196M); cell-free assay, competition with immobilised ligand).
For MAPK8 (Homo sapiens, UniProt P45983); cell-free assay, competition with immobilised ligand: remaining binding read 98%.
For CDKL3 (Homo sapiens, UniProt Q8IVW4); cell-free assay, competition with immobilised ligand: remaining binding read 92%.
For LRRK2 (Homo sapiens, UniProt Q5S007); cell-free assay, competition with immobilised ligand: remaining binding read 89%.
The remaining binding was 78% (IKBKB (Homo sapiens, UniProt O14920); cell-free assay, competition with immobilised ligand).
It gave 100% for remaining binding (CDC42BPG (Homo sapiens, UniProt Q6DT37); competition binding).
It gave 93% for remaining binding (KIT (Homo sapiens, UniProt P10721, V559D); cell-free assay, competition with immobilised ligand).
It gave 98% for remaining binding (MAPK1 (Homo sapiens, UniProt P28482); cell-free assay, competition with immobilised ligand).

For quick reference, copied from above (series 4):
The remaining binding was 93% (PRKCQ (Homo sapiens, UniProt Q04759); cell-free assay, competition with immobilised ligand).
It gave 85% for remaining binding (DCLK1 (Homo sapiens, UniProt O15075); cell-free assay, competition with immobilised ligand).
Tyrosine-protein kinase ABL1, non-phosphorylated (ABL1, Homo sapiens, UniProt P00519, F317I); binding, competition with immobilised ligand — remaining binding: 100%.
For CAMK1G (Homo sapiens, UniProt Q96NX5); cell-free assay, competition with immobilised ligand: remaining binding read 100%.
NEK2 (Homo sapiens, UniProt P51955); cell-free assay, competition with immobilised ligand — remaining binding: 100%.
PIK3CA (Homo sapiens, UniProt P42336, I800L); cell-free assay, competition with immobilised ligand — remaining binding: 96%.
BRSK2 (Homo sapiens, UniProt Q8IWQ3); cell-free assay, competition with immobilised ligand — remaining binding: 100%.
For STK32B (Homo sapiens, UniProt Q9NY57); cell-free assay, competition with immobilised ligand: remaining binding read 90%.
It gave 100% for remaining binding (CAMK2G (Homo sapiens, UniProt Q13555); cell-free assay, competition with immobilised ligand).
It gave 98% for remaining binding (ALK (Homo sapiens, UniProt Q9UM73, L1196M); cell-free assay, competition with immobilised ligand).
For MAPK8 (Homo sapiens, UniProt P45983); cell-free assay, competition with immobilised ligand: remaining binding read 98%.
